Assay results collected from several papers.
Protocols differ between the studies behind these lines. ± marks the error that the study gave.
TFAM 43-221 del222-246: TFAM 43-221 del222-246 (Homo sapiens, UniProt Q00059)
Chain of UniProt Q00059 (whole entry, unmodified, looked up): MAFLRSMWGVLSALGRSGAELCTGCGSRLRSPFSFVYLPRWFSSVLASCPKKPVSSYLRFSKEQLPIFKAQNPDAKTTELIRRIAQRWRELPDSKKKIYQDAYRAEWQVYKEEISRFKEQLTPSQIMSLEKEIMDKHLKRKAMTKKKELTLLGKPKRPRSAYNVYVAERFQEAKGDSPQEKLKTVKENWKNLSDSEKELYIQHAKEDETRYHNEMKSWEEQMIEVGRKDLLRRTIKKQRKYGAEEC
RIGI: RIGI 2-925 (Homo sapiens, UniProt O95786)
Chain of UniProt O95786 (whole entry, looked up): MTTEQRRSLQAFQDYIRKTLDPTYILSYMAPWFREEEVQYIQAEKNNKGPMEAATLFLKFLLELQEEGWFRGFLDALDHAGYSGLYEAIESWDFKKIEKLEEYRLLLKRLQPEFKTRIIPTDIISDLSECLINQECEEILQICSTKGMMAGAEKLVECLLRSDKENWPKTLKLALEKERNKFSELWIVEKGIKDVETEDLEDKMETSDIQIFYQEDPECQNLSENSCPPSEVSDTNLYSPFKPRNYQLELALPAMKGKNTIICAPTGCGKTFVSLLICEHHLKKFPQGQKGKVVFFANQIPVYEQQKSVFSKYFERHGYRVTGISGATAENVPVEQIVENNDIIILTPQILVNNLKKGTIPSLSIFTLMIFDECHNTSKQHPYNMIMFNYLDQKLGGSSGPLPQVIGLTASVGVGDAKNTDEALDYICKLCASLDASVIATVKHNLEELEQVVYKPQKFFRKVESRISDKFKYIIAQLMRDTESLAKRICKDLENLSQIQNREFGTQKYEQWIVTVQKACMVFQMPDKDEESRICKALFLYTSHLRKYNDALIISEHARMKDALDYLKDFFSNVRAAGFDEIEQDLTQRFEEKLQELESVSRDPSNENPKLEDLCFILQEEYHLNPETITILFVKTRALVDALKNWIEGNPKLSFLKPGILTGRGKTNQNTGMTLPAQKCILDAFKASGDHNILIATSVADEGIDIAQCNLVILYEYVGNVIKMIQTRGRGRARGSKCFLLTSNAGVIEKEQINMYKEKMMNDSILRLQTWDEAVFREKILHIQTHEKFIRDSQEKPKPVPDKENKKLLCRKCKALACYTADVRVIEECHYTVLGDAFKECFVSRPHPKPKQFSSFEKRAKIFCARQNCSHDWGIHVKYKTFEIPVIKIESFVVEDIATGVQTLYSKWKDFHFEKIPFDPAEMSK
T1: NAB3/NRD1 NAB3 191-565; NRD1 1-548 (Saccharomyces cerevisiae); chain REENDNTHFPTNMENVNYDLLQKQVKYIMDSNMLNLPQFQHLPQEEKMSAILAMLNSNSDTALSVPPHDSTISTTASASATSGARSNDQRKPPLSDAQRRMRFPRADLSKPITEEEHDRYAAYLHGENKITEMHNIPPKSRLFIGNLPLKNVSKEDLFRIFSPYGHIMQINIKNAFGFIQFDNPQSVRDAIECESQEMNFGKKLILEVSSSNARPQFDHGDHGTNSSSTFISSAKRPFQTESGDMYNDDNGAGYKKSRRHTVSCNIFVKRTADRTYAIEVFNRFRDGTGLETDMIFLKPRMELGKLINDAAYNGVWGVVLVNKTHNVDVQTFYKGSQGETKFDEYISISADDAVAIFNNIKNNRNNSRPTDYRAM; chain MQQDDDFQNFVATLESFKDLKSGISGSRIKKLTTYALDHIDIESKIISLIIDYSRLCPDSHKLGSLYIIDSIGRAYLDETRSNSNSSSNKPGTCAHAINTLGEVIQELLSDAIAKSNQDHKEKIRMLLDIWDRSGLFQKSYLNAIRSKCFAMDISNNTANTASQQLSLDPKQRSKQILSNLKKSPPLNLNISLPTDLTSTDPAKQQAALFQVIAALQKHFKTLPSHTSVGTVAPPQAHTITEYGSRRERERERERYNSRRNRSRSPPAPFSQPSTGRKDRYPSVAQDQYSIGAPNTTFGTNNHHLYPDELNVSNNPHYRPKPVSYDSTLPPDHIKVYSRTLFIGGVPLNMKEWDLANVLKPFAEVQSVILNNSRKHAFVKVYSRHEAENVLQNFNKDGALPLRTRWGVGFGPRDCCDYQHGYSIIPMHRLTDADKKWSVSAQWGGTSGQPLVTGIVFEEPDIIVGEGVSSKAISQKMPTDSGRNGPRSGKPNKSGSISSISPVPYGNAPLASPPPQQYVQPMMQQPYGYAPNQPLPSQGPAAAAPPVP
Chain of UniProt Q9ES57 (whole entry, looked up): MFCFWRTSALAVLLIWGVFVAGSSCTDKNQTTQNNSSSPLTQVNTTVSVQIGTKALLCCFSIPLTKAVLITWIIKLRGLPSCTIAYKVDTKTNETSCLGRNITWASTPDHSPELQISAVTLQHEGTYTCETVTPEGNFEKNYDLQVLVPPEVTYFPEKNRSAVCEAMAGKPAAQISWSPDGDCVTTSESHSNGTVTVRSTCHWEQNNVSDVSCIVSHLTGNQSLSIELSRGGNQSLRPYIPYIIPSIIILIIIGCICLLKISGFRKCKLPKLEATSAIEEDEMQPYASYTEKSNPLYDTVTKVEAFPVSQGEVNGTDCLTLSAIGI
Chain of UniProt P35222 (whole entry, looked up): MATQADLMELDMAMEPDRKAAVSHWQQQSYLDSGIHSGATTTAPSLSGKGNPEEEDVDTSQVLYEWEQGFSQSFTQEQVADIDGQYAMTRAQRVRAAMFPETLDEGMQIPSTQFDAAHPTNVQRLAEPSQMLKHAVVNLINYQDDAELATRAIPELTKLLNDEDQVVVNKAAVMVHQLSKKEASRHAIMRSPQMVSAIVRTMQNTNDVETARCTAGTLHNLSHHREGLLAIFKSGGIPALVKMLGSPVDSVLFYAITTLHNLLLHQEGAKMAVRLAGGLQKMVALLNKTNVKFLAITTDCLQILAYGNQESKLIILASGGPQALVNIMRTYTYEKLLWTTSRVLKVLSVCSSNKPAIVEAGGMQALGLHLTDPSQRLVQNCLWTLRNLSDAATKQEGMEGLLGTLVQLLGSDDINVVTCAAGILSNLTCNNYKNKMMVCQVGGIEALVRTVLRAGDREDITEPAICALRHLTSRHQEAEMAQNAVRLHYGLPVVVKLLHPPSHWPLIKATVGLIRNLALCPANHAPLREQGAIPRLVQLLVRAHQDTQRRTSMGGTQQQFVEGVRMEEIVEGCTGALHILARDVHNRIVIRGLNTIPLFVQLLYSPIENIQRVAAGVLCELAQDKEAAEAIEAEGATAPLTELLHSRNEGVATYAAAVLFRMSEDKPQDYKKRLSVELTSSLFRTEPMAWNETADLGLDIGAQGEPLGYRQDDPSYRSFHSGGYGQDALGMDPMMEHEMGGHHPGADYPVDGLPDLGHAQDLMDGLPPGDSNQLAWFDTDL
Chain of UniProt Q57977 (whole entry, looked up): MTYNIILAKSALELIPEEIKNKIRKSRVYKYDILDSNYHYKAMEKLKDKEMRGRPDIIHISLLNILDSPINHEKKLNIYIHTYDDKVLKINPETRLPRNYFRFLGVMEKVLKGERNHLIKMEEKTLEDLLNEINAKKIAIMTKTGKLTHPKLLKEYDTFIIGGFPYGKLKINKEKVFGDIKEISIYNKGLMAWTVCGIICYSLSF

AGCAGGAGCAGGAACAGGATGAACA (dsDNA; 25 bp duplex) — Kd (TFAM 43-221 del222-246; FRET; double-stranded DNA, one strand shown; apparent, cooperative Hill model): 8.1 ± 1.7 nM
GGACGUACGUUUCGACGUACGUCC (structured RNA; 5'-OH, hairpin, 10 bp) — Kd (RIGI; MST; folded RNA; added: AMP-CP 0.4 mM; MgCl2.5 mM): 12.3 ± 3.2 nM
UUCAAC (ssRNA) — Kd (nep1 1-205 (Methanocaldococcus jannaschii, UniProt Q57977); fluorescence quenching; RNA): 12300 ± 1900 nM
GGACGUACGUUUCGACGUACGUCC (structured RNA; 5'-triphosphate, hairpin, 10 bp) — Kd (RIGI; MST; folded RNA; added: AMP-CP 0.4 mM; MgCl2.5 mM): 2.5 ± 1.3 nM
GGGACGCGUGGUACCAGGCCGAUCUAUGGACGCUAUAGGCACACCGGAUACUUUAACGAUUGGCUAAGCUUCCGCGGGGAUC (structured RNA; stem-loops, bulges, tri-bridged) — Kd (CTNNB1 138-693 (Homo sapiens, UniProt P35222); SPR; folded RNA): 4.56 nM
RNA 1 GCAUGCGACCUCUGUUUGA / RNA 2 UCAAACAGAGGUCGCAUGC (dsRNA; 5'-triphosphate, duplex, 19 bp) — Kd (RIGI; MST; double-stranded RNA; no nucleotide): 1.3 ± 0.5 nM
ACACCGCTGCTAACCCCATACCCCG (dsDNA; 25 bp duplex) — Kd (TFAM 43-246 (Homo sapiens, UniProt Q00059); FRET; double-stranded DNA, one strand shown; apparent, cooperative Hill model): 7.4 ± 0.9 nM
GACGATAGCGGTGACGGCACAGACGTTTATTACCATTATGCCTATGTAACGTATGCCGCTTCCGTCCGTCGCTC (ssDNA) — Kd (Cd200r1 26-238 (Mus musculus, UniProt Q9ES57); nitrocellulose filter binding; single-stranded DNA; estimated, weak, added: Mg2+ 1 mM): > 1000 nM
GTGTTAGTTGGGGGGTGACTGTTAA (dsDNA; 25 bp duplex) — Kd (TFAM 43-221 del222-246; FRET; double-stranded DNA, one strand shown; apparent, ligand depletion model): 9.8 ± 1.3 nM
RNA 1 GCAUGCGACCUCUGUUUGA / RNA 2 UCAAACAGAGGUCGCAUGC (dsRNA; 5'-OH, duplex, 19 bp) — Kd (RIGI; MST; double-stranded RNA; added: ADP-AlFx): 11 ± 8 nM
CGGGATATCCCG (dsDNA) — Kd (Tardbp 101-265 (Mus musculus, UniProt Q921F2); filter binding; double-stranded DNA, one strand shown): 1320 nM
AAUCUUAGUAAUC (ssRNA) — Kd (T1, NAB3/NRD1 NAB3 191-565; NRD1 1-548 (Saccharomyces cerevisiae); fluorescence anisotropy; RNA): 5.3 ± 0.6 nM

A few entries again:
UUCAAC (ssRNA) — Kd (nep1 1-205 (Methanocaldococcus jannaschii, UniProt Q57977); fluorescence quenching; RNA): 12300 ± 1900 nM
GTGTTAGTTGGGGGGTGACTGTTAA (dsDNA; 25 bp duplex) — Kd (TFAM 43-221 del222-246; FRET; double-stranded DNA, one strand shown; apparent, ligand depletion model): 9.8 ± 1.3 nM
